Published values collected from several papers.
Protocols differ between the studies behind these lines. Several values in a cell are separate wells, animals, samples, runs or records. ± marks the error that the study gave.
Chain of UniProt P48047 (whole entry, looked up): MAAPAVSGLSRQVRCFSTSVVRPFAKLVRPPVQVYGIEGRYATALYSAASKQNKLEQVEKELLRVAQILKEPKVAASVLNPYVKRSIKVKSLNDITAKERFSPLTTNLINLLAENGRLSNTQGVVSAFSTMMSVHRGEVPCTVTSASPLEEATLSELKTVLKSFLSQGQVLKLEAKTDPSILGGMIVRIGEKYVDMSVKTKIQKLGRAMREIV

SMILES | target or system | assay | test system | setting | how to read | measurement | result
COc1ccc(-c2c(-c3ccc(C#N)c(F)c3)nc(N3CCC(N)CC3)n(C)c2=O)cc1F | – | item: Dysgeusia | neuroendocrine neoplasm patients | oral, 60 mg, grade 3 to 4, dose expansion | – | treatment-related adverse event incidence | 0%
O=C(O)CCCOc1ccc(F)cc1-c1cc(-c2ccccc2C(F)(F)F)n(-c2ccccc2)n1 | – | – | Crl:CD(SD) rat, male | intravenous, 25 µg/kg, 14 days post-dose | – | albumin fraction of serum protein | 49 ± 1.6%
N=c1c2c(-c3ccccc3)c(-c3ccccc3)n(Cc3ccccc3)c2ncn1[C@H]1CC[C@H](O)CC1 | – | – | C57BL/6 mice, plasma | 3 mg/kg | – | AUC(0-t)/AUC(0-inf) | > 95%
CC(C)[C@H](O)C(=O)N[C@H]1Cc2ccc3c(c2)[C@]2(C4=C(c5nc(CO)co5)N=C(O4)[C@H](C(C)(C)C)NC1=O)c1cc(F)ccc1N[C@@H]2O3 | – | – | NSG mice, female, MDA-MB-231-BrM2 xenograft, mammary fat pad | intravenous, 10 mg/kg, single MTD dose, together with: paclitaxel 40 mg/kg | – | AUC(0-t) | 34500 ng·h/mL
C=CCNc1c(O)cc2c(O)c1C[C@@H](C)C[C@H](OC)[C@H](O)[C@@H](C)/C=C(\C)[C@H](OC(N)=O)[C@@H](OC)/C=C\C=C(/C)C(=O)N2 | – | – | unresectable or metastatic STS, GIST, other | intravenous, 150 mg/m^2 | – | patients with headache TEAE | 0%
[2H]C([2H])([18F])[C@]([2H])(N)C(=O)O | – | PET | athymic nude mice, U-87 MG, muscle | dose not given, 20 min post-injection | – | tissue uptake | 1.44 ± 0.21 %ID/cc
CC[C@H](C)[C@H](NC(=O)[C@H](CC(N)=O)NC(=O)[C@H](CCC(=O)O)NC(=O)[C@H](C)NC(=O)[C@H](Cc1c[nH]cn1)NC(=O)[C@@H](NC(=O)[C@@H]1CCCN1C(=O)[C@H](CO)NC(=O)[C@@H]1CCCN1C(=O)[C@@H](NC(=O)[C@H](Cc1ccc(O)cc1)NC(=O)[C@@H](NC(=O)[C@H](CCCNC(=N)N)NC(=O)[C@H](CO)NC(=O)[C@@H](NC(=O)[C@H](Cc1c[nH]cn1)NC(C)=O)[C@@H](C)O)[C@@H](C)CC)[C@@H](C)CC)[C@@H](C)CC)C(N)=O | – | circular dichroism | water with 5% DMSO | 500 µM, 18 °C | – | alpha-helix content | 2%
CC(C)Nc1ccnc(Nc2cccc(-c3cccnc3)c2)n1 | – | item: Calcium | mouse, blood | intraperitoneal, 3 mg/kg | – | blood chemistry | 10.1 mg/dL
O=C1N=C(N2CCCCN2)S/C1=C\c1ccc(F)cc1OC(=O)N1CCCC1 | – | – | rat Sprague-Dawley both sexes | oral, dose not given, 7 days repeat dose, twice daily | – | NOEL | 200 mg/kg/day
O=C(Nc1ccccc1)C1CCN(C(=O)Oc2cccnc2)CC1 | – | psychotropic effects VAS | healthy women | 100 mg | reference: pre-dose baseline, direction not given | change in Suspicious score | 0.2
Cc1ccc2cc(N3CCC4(O)C(=O)c5cc(C)c(C)cc5N=C34)ccc2n1 (stereo not drawn) | – | – | mouse, M1, PrL, S1BF, CA1, BLA | intraperitoneal, 20 mg/kg | – | dendritic spine density | no effect
Cn1cc(-c2nc(N[C@@H]3CCCC[C@@H]3N)c(F)c3c2C(=O)NC3)cn1 | – | epistaxis | patients with relapsed or refractory AML | oral, 60 mg once daily | – | adverse events | 25%
C1=Cc2nc1cc1ccc([n-]1)c(-c1ccccc1)c1nc(cc3ccc([n-]3)c2-c2ccccc2)C=C1.CC(=O)[O-].[Mn+3] | – | LC-MS/MS | Sprague-Dawley rat, plasma | oral gavage, dose not given, 120 min | – | plasma concentration | 78 ng/mL and 51 ng/mL
C=CC(=O)N1CC[C@H](n2nc(C#Cc3cc(OC)cc(OC)c3)c3c(N)ncnc32)C1 | – | – | patients with advanced solid tumours | oral, dose not given, Malaise, any grade, QD, together with: ferric citrate hydrate | – | adverse drug reaction incidence | 0%
CC(=O)c1c(C)c2cnc(Nc3ccc(C4CCN(CCS(C)(=O)=O)CC4)cn3)nc2n(C2CCCC2)c1=O | – | – | human, dose-escalation trial, plasma | oral, 25 mg twice daily, day 21, multiple doses | – | clearance | 887 mL/min
CCCCCOc1ccc(-c2ccc(-c3ccc(C(=O)N[C@H]4C[C@@H](O)[C@@H](OCC[N+](C)(C)C)NC(=O)[C@@H]5[C@@H](O)[C@@H](C)CN5C(=O)[C@H]([C@@H](C)O)NC(=O)[C@H]([C@H](O)[C@@H](O)c5ccc(O)cc5)NC(=O)[C@@H]5C[C@@H](O)CN5C(=O)[C@H]([C@@H](C)O)NC4=O)cc3)cc2)cc1 | – | – | adult ICU patients, mITT, serum | dose not given, day 30 | – | bilirubin | 14.6 µmol/L
C[C@H]1CN(c2n[nH]c3nc(N[C@H]4CC[C@H](NS(=O)(=O)CCC(F)(F)F)CC4)ncc23)CCO1 | ATP synthase peripheral stalk subunit OSCP, mitochondrial (Homo sapiens, UniProt P48047) | biochemical | – | – | – | IC50 | ≥ 20 µM
C=C(CN(C(=O)c1c(C(F)F)nn(C)c1F)C1CC1)c1ccc(Cl)cc1Cl | – | static acute toxicity test | zebrafish (Brachydanio rerio) | 0.833 mg a.i./L, 48 h | – | mortality | 0%

SMILES | target or system | assay | test system | setting | how to read | measurement | result
O=S(=O)(Nc1ccccc1)c1ccc(NC(=S)Nc2ccccc2)cc1 | – | item: MO% | male mouse, blood | oral, 20 mg/kg daily, 14 days | – | blood cell fraction | 4.7%
CC(C)C[C@H](NC(=O)[C@H](CCCCN)NC(=O)OCC1c2ccccc2-c2ccccc21)C(=O)N[C@H](C(=O)N[C@@H](Cc1ccccc1)C(=O)N[C@@H](Cc1ccccc1)C(=O)N[C@@H](CCCCN)C(=O)NCC(=O)N[C@@H](Cc1ccccc1)C(=O)N[C@@H](C)C(=O)N[C@@H](Cc1c[nH]c2ccccc12)C(=O)N[C@@H](CC(N)=O)C(=O)N[C@H](C(=O)N[C@H]1CSSC[C@@H](C(=O)N[C@@H](Cc2c[nH]cn2)C(=O)N[C@@H](CCCNC(=N)N)C(=O)N[C@@H](CCCNC(=N)N)C(=O)N[C@@H](C)C(=O)N[C@@H](CC(N)=O)C(N)=O)NC(=O)[C@H](C(C)C)NC(=O)[C@H](CCCNC(=N)N)NC(=O)[C@H](C(C)C)NC(=O)CNC(=O)[C@H](CC(N)=O)NC(=O)[C@H](CCCNC(=N)N)NC(=O)[C@H](Cc2ccc(O)cc2)NC(=O)[C@H](C(C)C)NC1=O)C(C)C)C(C)C | – | HPLC | mouse mammary gland homogenate | 2560 µM, 10.00 h, 37 °C, 50 mg/mL tissue | – | remaining peptide | 61.3% and 66.1% and 63.2%
COc1ncccc1-c1cnn2ccc(N3CCN(C(=O)OC(C)C)CC3)nc12 | – | – | mouse, SNL model, brain | oral, 30 mg/kg, 120 min | – | drug concentration | 28 µM
Cc1ccc(F)c2cc(C(=O)N[C@@H]3CCC[C@H](N4CC[C@H](N(C)S(C)(=O)=O)C4)C3)[nH]c12 | – | – | CD1 mouse | oral, 30 mg/kg | – | AUC(0-inf) | 2680 ng·h/mL
CCOc1ccc(NC(=O)O[C@@H](Cn2nc(C(C)C)cc2C(C)C)C(C)C)cc1 | – | – | zebrafish larvae, HEPES-buffered medium | immersion, up to 100 µM, 24 h, pH 7 | – | larval viability | 100%
NC(=O)[C@H]1CCN(c2ncnc(N)c2F)C[C@@H]1N1CCC[C@@H](Nc2cc(Cl)cc(C(F)(F)F)c2)C1=O | – | – | B-cell malignancy patients | oral, 164 mg twice daily, dose | – | grade ≥3 lymphopenia | 0%
COc1cc2c(Oc3ccc4[nH]c(C)cc4c3F)ccnc2cc1OCC1(N)CC1 | – | – | paediatric recurrent refractory sarcoma | 8 mg/kg | – | grade 1 or 2 sinus tachycardia | 13.3%
CN[C@H]1CC[C@@H](c2ccc(Cl)c(Cl)c2)c2ccccc21 | – | – | CD-1 mouse, male, plasma | intraperitoneal, 3 mg/kg | – | AUC(0-inf) | 243 ng·h/mL
CO[C@H]1C[C@@H]2CC[C@@H](C)[C@@](O)(O2)C(=O)C(=O)N2CCCC[C@H]2C(=O)O[C@H]([C@H](C)C[C@@H]2CC[C@@H](OC(=O)NCCOCCOCCOCCOCCOCCOCCOCCOCCC(=O)N3CCc4cc(Cn5nc(-c6ccc7oc(N)nc7c6)c6c(N)ncnc65)ccc4C3)[C@H](OC)C2)C[C@@H](O)[C@H](C)/C=C(\C)[C@@H](O)[C@@H](OC)C(=O)[C@H](C)C[C@H](C)/C=C/C=C/C=C/1C | – | phase 1 dose escalation, item: fatigue | advanced solid tumour patients | intravenous, 6 mg weekly, any grade | – | TRAE incidence | 41.7%
Oc1ccc(Cl)c(-c2cc(Cl)c(Cl)cc2Cl)c1Cl | – | enantioselective gas chromatography | racemized sample | column temperature 150 °C | – | enantiomeric fraction | 0.5
Clc1ccc(-c2ccccc2)cc1 | – | – | Sprague-Dawley rats, female, serum | inhalation, 23 µg/rat, 4 h after exposure | – | albumin | 3 ± 0.3 g/dL
O=C1Nc2cc3[nH]nc(-c4ccncc4)c3cc2CN1Cc1ccccc1 | – | CTCAE v4.03 | advanced solid tumour patients | intravenous, 4.8 mg/kg, schedules 1/2 | – | patients with headache | 25%
C[C@H]1CN(C(=O)CC#N)[C@]12CCN(c1ncnc3[nH]ccc13)C2 | – | – | minipig, female | dermal, 12 mg/kg repeated, 1 months | – | Cmax at NOAEL | 1.4 ng/mL
O=S(=O)([O-])C(F)(F)C(F)(F)C(F)(F)C(F)(F)C(F)(F)C(F)(F)C(F)(F)C(F)(F)F.[K+] | – | LC-ESI-MS/MS | EtOH-fed mice, kidney | dose not given | reference: pair-fed mice | tissue concentration | increased
CC(C)CC(=O)OC[C@H]1O[C@@](C#N)(c2ccc3c(N)ncnn23)[C@H](O)[C@@H]1O | – | – | Mice plasma | 5 µM, 30 min | – | remaining compound | 0%
COc1ccnc(C(=O)N[C@H]2COC(=O)[C@H](Cc3ccccc3)[C@@H](OC(=O)C(C)C)[C@H](C)OC2=O)c1OCOC(=O)C(C)C | – | – | field soil, loam | actual, southern France | – | DT50 | 3.09 days
C[C@]1(CO)Cc2ncn(-c3ccc(C#N)c(Cl)c3)c2C(=O)O1 | – | item: involuntary muscle contractions | human | 2 mg single dose | – | subjects with drug-related TEAE | 0%
COc1cccc(Oc2ccccc2NC(=O)CNC(=O)c2cccc3ccccc23)c1 | – | – | esterase-deficient SCID mice, male, blood | oral, 15 mg/kg/day, 14 days, toxicity study | reference: white cells | basophils | 2.8% and 0%

Repeated from above:
SMILES | target or system | assay | test system | setting | how to read | measurement | result
CN[C@H]1CC[C@@H](c2ccc(Cl)c(Cl)c2)c2ccccc21 | – | – | CD-1 mouse, male, plasma | intraperitoneal, 3 mg/kg | – | AUC(0-inf) | 243 ng·h/mL
CO[C@H]1C[C@@H]2CC[C@@H](C)[C@@](O)(O2)C(=O)C(=O)N2CCCC[C@H]2C(=O)O[C@H]([C@H](C)C[C@@H]2CC[C@@H](OC(=O)NCCOCCOCCOCCOCCOCCOCCOCCOCCC(=O)N3CCc4cc(Cn5nc(-c6ccc7oc(N)nc7c6)c6c(N)ncnc65)ccc4C3)[C@H](OC)C2)C[C@@H](O)[C@H](C)/C=C(\C)[C@@H](O)[C@@H](OC)C(=O)[C@H](C)C[C@H](C)/C=C/C=C/C=C/1C | – | phase 1 dose escalation, item: fatigue | advanced solid tumour patients | intravenous, 6 mg weekly, any grade | – | TRAE incidence | 41.7%
Oc1ccc(Cl)c(-c2cc(Cl)c(Cl)cc2Cl)c1Cl | – | enantioselective gas chromatography | racemized sample | column temperature 150 °C | – | enantiomeric fraction | 0.5
Clc1ccc(-c2ccccc2)cc1 | – | – | Sprague-Dawley rats, female, serum | inhalation, 23 µg/rat, 4 h after exposure | – | albumin | 3 ± 0.3 g/dL
